Results of several laboratories.
Compare with care: the assays were run in different laboratories. “And” joins repeats or separate records; there may be more than shown. ± gives the spread as reported.
GUK1: GUK1 (Homo sapiens, UniProt Q16774)
GLP1R: Glucagon-like peptide 1 receptor (GLP1R, Homo sapiens, UniProt P43220)

SMILES	target or system	assay	system	setting	scale	quantity	result
CC1(C)CN(CCCCC(=O)N[C@@H](CCC(=O)O)C(=O)N[C@@H](CCC(=O)O)C(=O)N[C@H](CCCCNC(=O)CCCCCCC(=O)NCCCC[C@H](NC(=O)N[C@@H](CCC(=O)O)C(=O)O)C(=O)O)C(=O)O)CC[N]2CC(C)(C)[S][Tc]2(=[O])[S]1 (stereo partly shown) [technetium-99m labelled]	FOLH1 (Homo sapiens, UniProt Q04609)	radioligand, saturation binding	LNCaP	1 h, 37 °C, added: [99mTc]TcO-6	–	Bmax	10 ± 2.7 pmol/mg
Cc1ccc(N2CC(C(N)=O)CC2=O)cc1 (stereo not shown)	Transcription intermediary factor 1-beta, PHD-bromodomain (TRIM28, Homo sapiens, UniProt Q13263)	binding, affinity selection mass spectrometry	–	–	relative to: other proteins in batch	log fold enrichment	-0.0385
Nc1ncnc2c1ncn2[C@@H]1O[C@H](COP(=O)(O)OP(=O)(O)O)[C@@H](O)[C@H]1O	GUK1	ITC	–	molar ratio 2.83	–	ΔH	-0.144 kcal/mol
CC1=C[C@H](O)CC(C)(C)[C@H]1/C=C/C(C)=C/C=C/C(C)=C/C=C/C=C(C)/C=C/C=C(C)/C=C/C1=C(C)C[C@@H](O)CC1(C)C	Beta-lactoglobulin (LGB, Bos taurus, UniProt P02754)	fluorescence quenching	–	303 K	–	Stern-Volmer quenching constant	32500 ± 6500 L/mol
CCc1oc2ccccc2c1C(=O)c1cc(Br)c(O)c(Br)c1	SLC22A12 (Homo sapiens, UniProt Q96S37)	inhibitor	HEK-293T	0.03 µM, 10 min, 37 °C, added: [14C]urate 10 µM	–	normalized urate uptake	0.977 and 1.09 and 0.966
CCN1CCC[C@H]1CNC(=O)c1c(O)c(Cl)cc(Cl)c1OC	GPRC5C (Homo sapiens, UniProt Q9NQ84)	β-arrestin recruitment, TANGO luminescence	–	concentration not given	relative to: basal luminescence	log2 fold change	0.303
N#Cc1ccc2[nH]cc(CCCCN3CCN(c4ccc5oc(C(N)=O)cc5c4)CC3)c2c1	SLC6A4 (Homo sapiens, UniProt P31645, F556A/S438T)	[3H]5-HT uptake, inhibitor	COS-7	–	–	Hill coefficient	1.11 ± 0.22
C[C@@H]1CCO[C@H]2Cn3cc(C(=O)NCc4ccc(F)cc4F)c(=O)c(O)c3C(=O)N12	SLC22A3 (Homo sapiens, UniProt O75751)	transport	MDCK-II, transfected	1 µM, added: MPP+ 2 µM	–	inhibition	12.5%
COCCC(=O)Nc1ccc(C2CCCCC2)cc1	–	hepatocyte stability	cryopreserved human hepatocytes	1 µM	–	hepatic clearance	19 mL/min/kg
O=c1cc(-c2ccc([N+](=O)[O-])cc2)[nH]c2c(-c3ccc(Cl)cc3)c(Cc3ccccc3)nn12	Kelch-like protein 7 (KLHL7, Homo sapiens, UniProt Q8IXQ5)	thermal stability, binder, thermal proteome profiling	RD, cell lysate	50 µM, 0.5% DMSO	relative to: DMSO vehicle	melting temperature shift	3.2 °C
NS(=O)(=O)c1cccc(-c2ccc(C3CCCCC3)cc2)c1	–	liver microsome stability	mouse liver microsomes	1 µM	–	hepatic clearance	31 mL/min/kg
CCOc1ccc(C(=O)CC(SCc2ccc(Cl)cc2)C(=O)O)cc1 (stereo not shown)	PLEKHA3, PH domain (Homo sapiens, UniProt Q9HB20)	fluorescence polarization	–	–	relative to: other family proteins over target	selectivity ratio	> 10 fold
CC1=C(/C=C/C(C)=C/C=C/C(C)=C/C=O)C(C)(C)CCC1	Rhodopsin (RHO, Bos taurus, UniProt P02699, I189A)	retinal entry, Trp FRET	lipid bicelles	28 °C, I189A mutant	relative to: wild-type rhodopsin	relative kon	1.28 ± 0.13
Oc1c(Br)cc(Oc2ccc(Br)cc2Br)cc1Br	SULT1B1 (Homo sapiens, UniProt O43704)	sulfonation, substrate	–	–	–	Vmax/Km	548 µL/min/mg
CC[C@H](C)[C@H](NC(=O)[C@H](Cc1ccccc1)NC(=O)[C@H](CCC(=O)O)NC(=O)[C@H](CCCNC(=N)N)NC(=O)[C@H](C)NC(=O)[C@H](C)NC(=O)[C@H](CCC(N)=O)NC(=O)[C@H](CCCCNc1c(NCCCCCN(O)C(=O)CCC(=O)NCCCCCN(O)C(=O)CCC(=O)NCCCCCN(O)C(C)=O)c(=O)c1=O)NC(=O)[C@H](CCC(=O)O)NC(=O)[C@H](CC(C)C)NC(=O)[C@H](Cc1ccc(O)cc1)NC(=O)[C@H](CO)NC(=O)[C@H](CO)NC(=O)[C@@H](NC(=O)[C@H](CC(=O)O)NC(=O)[C@H](CO)NC(=O)[C@@H](NC(=O)[C@H](Cc1ccccc1)NC(=O)[C@@H](NC(=O)CNC(=O)[C@H](CCC(=O)O)NC(=O)[C@H](C)NC(=O)CCc1cnc[nH]1)[C@@H](C)O)[C@@H](C)O)C(C)C)C(=O)N[C@@H](C)C(=O)N[C@@H](Cc1c[nH]c2ccccc12)C(=O)N[C@@H](CC(C)C)C(=O)N[C@H](C(=O)N[C@@H](CCCCNc1c(NCCCCCN(O)C(=O)CCC(=O)NCCCCCN(O)C(=O)CCC(=O)NCCCCCN(O)C(C)=O)c(=O)c1=O)C(=O)NCC(=O)N[C@@H](CCCNC(=N)N)C(=O)N[C@@H](CCCCNC(=O)COCCOCCNC(=O)COCCOCCNC(=O)CC[C@H](NC(=O)CCCCCCCCCCCCCCCCC(=O)O)C(=O)O)C(=O)O)C(C)C	GLP1R	agonist, CRE luciferase reporter	BHK cells	metal-free DFO conjugate, added: 1% HSA	relative to: parent peptide	fold potency loss	20.2
Nc1ncnc2c1ncn2[C@@H]1O[C@H](CO[P@](=O)(O)O[P@](=O)(O)O[P@@](=O)(O)S)[C@@H](O)[C@H]1O	GUK1	binding, isothermal titration calorimetry	–	molar ratio 3.506, fitted curve	–	ΔH	-0.196 kcal/mol
Nc1c(N=Nc2ccc(S(=O)(=O)CCOS(=O)(=O)[O-])cc2)c(S(=O)(=O)[O-])cc2cc(S(=O)(=O)[O-])c(N=Nc3ccc(S(=O)(=O)CCOS(=O)(=O)[O-])cc3)c(O)c12.[Na+].[Na+].[Na+].[Na+]	alternative ancestral dye-decolorizing peroxidase	peroxidase activity, substrate, steady-state kinetics	–	25 °C, pH 3 ABTS, 4 others	–	kcat	0.2 s⁻¹
Nc1nc2c(ncn2[C@@H]2O[C@H](COP(=O)(O)OP(=O)(O)O)[C@@H](OP(=O)(O)OP(=O)(O)O)[C@H]2O)c(=O)[nH]1	speC (Escherichia coli, UniProt P21169)	ITC	–	concentration not given	–	binding stoichiometry	1.14 ± 0.004
Nc1ccc(C(=O)O)cc1	BEST1, with wild-type BEST1 (Homo sapiens, UniProt O76090, D302A)	ion current, whole-cell patch clamp	HEK293 co-expressing mutant and wild-type	concentration not given, voltage 80 mV	–	current density	17.1 pA/pF and 9.87 pA/pF and 28.1 pA/pF and 7.67 pA/pF and 17.2 pA/pF and 13.7 pA/pF
CC[C@H](C)[C@H](NC(=O)[C@H](Cc1ccccc1)NC(=O)[C@H](CCC(=O)O)NC(=O)[C@H](CCCNC(=N)N)NC(=O)[C@H](C)NC(=O)[C@H](C)NC(=O)[C@H](CCC(N)=O)NC(=O)[C@H](CCC(=O)O)NC(=O)[C@H](CCC(=O)O)NC(=O)[C@H](CC(C)C)NC(=O)[C@H](Cc1ccc(O)cc1)NC(=O)[C@H](CO)NC(=O)[C@H](CO)NC(=O)[C@@H](NC(=O)[C@H](CC(=O)O)NC(=O)[C@H](CO)NC(=O)[C@@H](NC(=O)[C@H](Cc1ccccc1)NC(=O)[C@@H](NC(=O)CNC(=O)[C@H](CCC(=O)O)NC(=O)[C@H](C)NC(=O)CCc1cnc[nH]1)[C@@H](C)O)[C@@H](C)O)C(C)C)C(=O)N[C@@H](C)C(=O)N[C@@H](Cc1c[nH]c2ccccc12)C(=O)N[C@@H](CC(C)C)C(=O)N[C@H](C(=O)N[C@@H](CCCNC(=N)N)C(=O)NCC(=O)N[C@@H](CCCNC(=N)N)C(=O)N[C@@H](CCCCNC(=O)COCCOCCNC(=O)COCCOCCNC(=O)CC[C@H](NC(=O)CCCCCCCCCCCCCCCCC(=O)O)C(=O)O)C(=O)NCC(=O)NCC(=O)N[C@@H](CO)C(=O)N[C@@H](CCSC)C(=O)N[C@H](C(=O)N[C@@H](CCCCNc1c(NCCCCCN(O)C(=O)CCC(=O)NCCCCCN(O)C(=O)CCC(=O)NCCCCCN(O)C(C)=O)c(=O)c1=O)C(=O)O)C(C)C)C(C)C	GLP1R	agonist, CRE luciferase reporter	BHK cells	metal-free DFO conjugate, added: 1% HSA	relative to: parent peptide	fold potency loss	1.9
Cc1nc(CSc2nc(SCc3ccc(C(C)C)cc3)nc(=O)[nH]2)cs1	TOP2A (Homo sapiens, UniProt P11388)	DNA relaxation	–	31.25 µM	–	mean relaxed DNA	99.9%
C=CC(=O)N1CCC(COCC(=O)N2CCN(c3nc(-c4cnc(N)nc4C(F)F)nc(N4CCOC[C@@H]4C)n3)CC2)CC1	PIP4K2C (Homo sapiens, UniProt Q8TBX8)	KINOMEscan	–	1 µM	–	remaining binding	90%
CC[C@H](C)[C@@H]1NC(=O)[C@H](CCCNC(=N)N)NC(=O)[C@@H]2CCCN2C(=O)[C@H](Cc2ccccc2)NC(=O)[C@H]([C@@H](C)O)NC(=O)CNC(=O)[C@H](CC(C)C)NC(=O)[C@@H]2CCCN2C(=O)[C@H]([C@@H](C)O)NC(=O)[C@H](Cc2c[nH]c3ccccc23)NC(=O)[C@H](Cc2ccc(O)cc2)NC(=O)[C@H]([C@@H](C)CC)NC(=O)[C@H]([C@@H](C)O)NC(=O)[C@H]([C@@H](C)O)NC(=O)[C@@H](Cc2ccc(O)cc2)NC(=O)CSC[C@@H](C(N)=O)NC(=O)[C@H](CCCNC(=N)N)NC1=O	Vacuolar protein sorting-associated protein 29 (VPS29, Homo sapiens, UniProt Q9UBQ0)	binding, ITC	–	25 °C, protein alone	–	ΔG	-9.8 ± 0.08 kcal/mol
CC[C@H](C)[C@H](NC(=O)[C@H](Cc1ccccc1)NC(=O)[C@H](CCC(=O)O)NC(=O)[C@H](CCCNC(=N)N)NC(=O)[C@H](C)NC(=O)[C@H](C)NC(=O)[C@H](CCC(N)=O)NC(=O)[C@H](CCC(=O)O)NC(=O)[C@H](CCC(=O)O)NC(=O)[C@H](CC(C)C)NC(=O)[C@H](Cc1ccc(O)cc1)NC(=O)[C@H](CO)NC(=O)[C@H](CO)NC(=O)[C@H](CCCCNc1c(NCCCCCN(O)C(=O)CCC(=O)NCCCCCN(O)C(=O)CCC(=O)NCCCCCN(O)C(C)=O)c(=O)c1=O)NC(=O)[C@H](CC(=O)O)NC(=O)[C@H](CO)NC(=O)[C@@H](NC(=O)[C@H](Cc1ccccc1)NC(=O)[C@@H](NC(=O)CNC(=O)[C@H](CCC(=O)O)NC(=O)[C@H](C)NC(=O)CCc1cnc[nH]1)[C@@H](C)O)[C@@H](C)O)C(=O)N[C@@H](C)C(=O)N[C@@H](Cc1c[nH]c2ccccc12)C(=O)N[C@@H](CC(C)C)C(=O)N[C@H](C(=O)N[C@@H](CCCCNc1c(NCCCCCN(O)C(=O)CCC(=O)NCCCCCN(O)C(=O)CCC(=O)NCCCCCN(O)C(C)=O)c(=O)c1=O)C(=O)NCC(=O)N[C@@H](CCCNC(=N)N)C(=O)N[C@@H](CCCCNC(=O)COCCOCCNC(=O)COCCOCCNC(=O)CC[C@H](NC(=O)CCCCCCCCCCCCCCCCC(=O)O)C(=O)O)C(=O)O)C(C)C	GLP1R	agonist, CRE luciferase reporter	BHK cells	metal-free DFO conjugate, added: 0% HSA	relative to: parent peptide	fold potency loss	63.2
CCCCC[C@H](O)/C=C/[C@H]1[C@H](O)CC(=O)[C@@H]1C/C=C\CCCC(=O)O	PTGER1 (Homo sapiens, UniProt P34995, F334A/G92A/P39A)	IP1 accumulation, agonist	AD293	1 h	relative to: wild type receptor	Emax	77.1 ± 4.3%
COc1cc(Nc2ncc3c(n2)-c2ccc(Cl)cc2C(c2c(F)cccc2OC)=NC3)ccc1C(=O)O	PDGFRA	kinase activity	–	1 µM	–	remaining activity	94%
NCCCS(=O)(=O)O	SLC6A6 (Homo sapiens, UniProt P31641, G62A)	binding, microscale thermophoresis	–	244 nM, room temperature, added: 50 nM labelled protein	higher = more binding	normalised MST signal	0.0303
CC(=O)N[C@H](C(=O)N1C[C@H](O)C[C@H]1C(=O)NCc1ccc(-c2scnc2C)cc1)C(C)(C)SCCCCCCNC(=O)C[C@@H]1N=C(c2ccc(Cl)cc2)c2c(sc(C)c2C)-n2c(C)nnc21	BRD2/VHL, BD1; with VCB (Homo sapiens, UniProt P25440+P40337, K107A/Q101K/V106E)	ITC	–	25 °C, added: BRD2 BD1	relative to: binary Kd over ternary Kd	cooperativity	7
